Assay results of several laboratories.
Lines come from different studies, so protocols differ. Several values in a cell are separate wells, animals, samples, runs or records. ± marks the error that the study gave.

| Compound | cell line | test | setting | scale | endpoint | result |
| --- | --- | --- | --- | --- | --- | --- |
| CC1(C)CN(CCCCC(=O)N[C@@H](CCC(=O)O)C(=O)N[C@@H](CCC(=O)O)C(=O)N[C@H](CCCCNC(=O)CCCCCCC(=O)NCCCC[C@H](NC(=O)N[C@@H](CCC(=O)O)C(=O)O)C(=O)O)C(=O)O)CC[N]2CC(C)(C)[S][Tc]2(=[O])[S]1 (stereo partly shown) [technetium-99m labelled] | LNCaP |  | 25 nM, 1 h, 37 °C |  | surface-bound activity | 3.7 ± 1.11 %AD/mg protein |
| C=CC(=O)N1CCC(COCC(=O)N2CCN(c3nc(-c4cnc(N)nc4C(F)F)nc(N4CCOC[C@@H]4C)n3)CC2)CC1 | A2058 | resazurin growth rate inhibition | 72 h |  | GR50 | 2690 nM |
| COc1ccc(NC(=S)N/N=C/c2cccc3cc4ccccc4nc23)cc1 | HeLa | PI flow cytometry | IC50, 48 h, added: N-acetylcysteine |  | G1 phase cells | 45.5 ± 0.1% |
| Cc1cnc2ccc3c(c2n1)N1CCC(O)N=C1N3C (stereo not shown) | BALB/c 3T3 | colony formation | 1 µM |  | plating efficiency | 43% |
| Clc1ccc(-c2csc(NN=C3CCCC3)n2)cc1 | HBL-1 |  | 1 µM, 120 h |  | viability | 94% |
| O=C(Nc1ccc(Cl)cc1)c1ccccc1NCc1ccncc1 | HeLa expressing Ub(G76V)-GFP | Ub(G76V)-GFP degradation, cycloheximide chase | 12 µM |  | inhibition | 35% |
| Cc1ccc(NC(=O)c2ccc(CN3CCN(C)CC3)cc2)cc1Nc1nc(-c2cccnc2)cs1 | hiPSC cardiomyocytes | CellTiter-Glo | concentration not given, 24 h | baseline: vehicle | ATP level | 101% |
| CC(=O)Nc1ccc(C(=O)Nc2ccccc2N)cc1 | HBL-1 |  | 1 µM, 120 h |  | viability | 60.3% |
| O=C1NC(=O)C(c2ccccc2)(c2ccccc2)N1 | hiPSC glutamatergic neurons | burst frequency, multi-electrode array | 1 h |  | lowest effective concentration | 1 µM |
| O=C(/C=C/N1C[C@H]2C[C@@H]1CN2c1ccccn1)c1ccccc1O | HBL-1 |  | 0.5 µM, 120 h |  | viability | 70.3% |
| c1cc(-c2cnn3cc(-c4ccc(OCCN5CCCCC5)cc4)cnc23)ccn1 | HeLa expressing Ub(G76V)-GFP | Ub(G76V)-GFP degradation, cycloheximide chase | 12 µM |  | inhibition | 3% |
| CC(C)(C)OC(=O)Nc1ccc(-c2cc(C(=O)NCCCCCCC(=O)NO)no2)cc1 | HBL-1 |  | 0.1 µM, 120 h |  | viability | 10.7% |
| CCCCc1nc2cc(/C=C/C(=O)NO)ccc2n1CCN(CC)CC | BT-12 | cell viability, MTT | 10 µM, 72 h |  | inhibition | 91.3% |
| CC(C)C[C@H](NC(=O)[C@H](Cc1ccccc1)C[C@@H](O)[C@H](Cc1ccccc1)NC(=O)OC(C)(C)C)C(=O)N[C@@H](Cc1ccccc1)C(N)=O | N2a expressing NotchΔE-myc | gamma-secretase Notch cleavage, Western blot | concentration not given, 24 h |  | NICD production | inhibited |
| CCS(=O)(=O)c1nc(C2CC2)cc(C(F)(F)F)n1 | HeLa Kyoto | RelA nuclear import, high content imaging | 50 µM, 3 h, added: 1 µM PMA, 60 min |  | cells with nuclear RelA | 13.4% and 6.66% |
| O=C1NC(=O)C(c2c[nH]c3ccccc23)=C1c1c[nH]c2ccccc12 | HeLa expressing Ub(G76V)-GFP | Ub(G76V)-GFP degradation, inhibitor, cycloheximide chase | 12 µM |  | inhibition | -9% |
| c1ccc(CNc2nc(NCc3ccccc3)c3ccccc3n2)cc1 | BT-12 | cell viability, MTT | 10 µM, 72 h |  | inhibition | 95.3% |
| CCn1cc(-c2cc(Cn3ccoc3=N)cc3c2CCN([C@@H](C)c2cc(OC)ccn2)C3=O)c(C(F)(F)F)n1 | OCI-Ly7 | cell growth, inhibitor | 120 h |  | EC50 | 1400 nM |
| COc1cc2c(NC3CCN(C(C)C)CC3)nc(N3CCC(F)(F)CC3)nc2cc1OCCCN1CCCC1 | HBL-1 |  | 0.1 µM, 120 h |  | viability | 112% |
| O=C(/C=C/C=C/C=C/C1CCCCC1)NC1=C[C@@](O)(/C=C/C=C/C=C/C(=O)NC2=C(O)CCC2=O)[C@@H]2O[C@@H]2C1=O | KYSE-70 | cell growth, CellTiter-Glo | 78 h |  | GI50 | 11000 nM |
| O=C(CCCc1ccc(-c2ccccc2F)cc1)Nc1ccc(O)cc1 | HeLa expressing Ub(G76V)-GFP | Ub(G76V)-GFP degradation, cycloheximide chase | 12 µM |  | inhibition | 30% |
| C#Cc1cccc(Nc2ncnc3cc(OC)c(OCCCCCCC(=O)NO)cc23)c1 | HBL-1 |  | 0.1 µM, 120 h |  | viability | 128% |
| CC(=O)Nc1cccc(-n2c(=O)n(C3CC3)c(=O)c3c(Nc4ccc(I)cc4F)n(C)c(=O)c(C)c32)c1 | NCI-H2087 (BRAF L597V) |  | 1.56 nM | baseline: DMSO | fractional effect | 0.119 |

| Compound | cell line | test | setting | scale | endpoint | result |
| --- | --- | --- | --- | --- | --- | --- |
| CCCCc1c(-c2ccc(OC)cc2)[nH]c2nccnc12 | HeLa expressing Ub(G76V)-GFP | Ub(G76V)-GFP degradation, cycloheximide chase | 12 µM |  | inhibition | 26% |
| CC/C(=N\NC(=O)NCc1cccc(O)c1)c1ccc(O)c(C)c1O | SK-OV-3 | gene expression, microarray, item: DRAXIN | 10 µM, 24 h | baseline: DMSO | log ratio | -4.27 |
| NC(=O)NOCCCCCCCCCCCC[P+](c1ccccc1)(c1ccccc1)c1ccccc1.O=C([O-])C(F)(F)F | mouse CD4 T cells, reporter | IFNγ-YFP expression, flow cytometry | 144 h |  | concentration at maximal effect | 10 µM |
| CCCCc1oc2ccc(NS(C)(=O)=O)cc2c1C(=O)c1ccc(OCCCN(CCCC)CCCC)cc1 | human embryonic stem cell aggregates | mRNA level, microarray, item: SLC22A23 | 0.5 µM, 120 h | baseline: untreated, up-regulated | fold change | 1.9 fold |
| C#Cc1cccc(Nc2ncnc3cc(OC)c(OCCCCCCC(=O)NO)cc23)c1 | BT-12 | cell viability, MTT | 10 µM, 72 h |  | inhibition | 94.5% |
| CC/C(=N\NC(=O)C(C)Nc1ccccc1)c1ccc(O)c(C)c1O (stereo not shown) | SK-OV-3 | Western blot, item: phospho-YAP | 10 µM, 3 h, 3D gellan gum culture, unit not given | baseline: total YAP | protein level | 0.29 ± 0.12 |
| C=CCn1c(=O)c2cnc(Nc3ccc(N4CCN(C)CC4)cc3)nc2n1-c1ccc2c(n1)[C@@](O)(CC)CC2 | OVCAR-3 | flow cytometry, item: pHH3+γH2Ax+ | concentration not given |  | G2/M cells in subpopulation | 16.3% |
| O=C(O)C(Cc1c[nH]c2ccccc12)N1C(=O)c2ccccc2C1=O (stereo not shown) | HBL-1 |  | 1 µM, 120 h |  | viability | 96.5% |
| O=C(C[C@@H](C(F)F)n1ccc(F)n1)N1CCC(O)(Cn2cnc3c(cnn3-c3ccc(F)cc3)c2=O)CC1 | CHP-212 resistant cells (pooled) | PI flow cytometry | 1 µM, 24 h |  | cells in G2/M phase | 11.5% and 15.3% and 8.97% |
| CC[C@@]1(O)C(=O)OCc2c1cc1n(c2=O)Cc2cc3c(CN(C)C)c(O)ccc3nc2-1 | BT-12 | cell viability, MTT | 10 µM, 72 h |  | inhibition | 93.5% |
| CC[S+]([O-])c1nc(-c2ccccc2)cc(C(F)(F)F)n1 (stereo not shown) | HeLa Kyoto | RelA nuclear import, high content imaging | 0.16 µM, 3 h, added: 1 µM PMA, 60 min |  | cells with nuclear RelA | 79.1% and 74.1% |
| Cc1cc(C)n(-c2nc(-c3ccc(Cl)cc3)c3c(NC(=O)c4ccccc4)nnc-3[nH]2)n1 | Hs-578T | SRB | 10 µM, NCI60 single-dose screen | baseline: untreated | cell growth | 80% |
| C=CC(=O)N1CCCN(C(=O)c2cc(Sc3cnc(NC(=O)C4CC4)s3)c(C)cc2OC)C[C@H]1C | human primary T cells |  | below 10 µM, added: TCR stimulation |  | viability and proliferation | no effect |
| C=Cc1c2[n-]c(c1C)/C=c1\[n-]/c(c(C)c1C=C)=C\c1[n-]c(c(CCC(=O)O)c1C)/C=c1\[n-]c(c(C)c1CCC(=O)O)=C2.[Sn+4] | SH-SY5Y | RNA-seq, item: SIRPG-AS1 | 5 µM, 5 h | baseline: untreated | log2 fold change | 9.21 |
| CC(C)C[C@@H](C=O)NC(=O)[C@H](CC(C)C)NC(=O)[C@H](CC(C)C)NC(=O)OCc1ccccc1 | HeLa expressing Ub(G76V)-GFP | Ub(G76V)-GFP degradation, cycloheximide chase | 0.039 µM | baseline: DMSO | remaining activity | 73% |
| Cn1cc(-c2ccc(-c3cncc(Cl)c3N3CCC4(CCNC4=O)CC3)cc2)cn1 | COLO 205 | gene expression, microarray, item: TUBD1 mRNA | concentration not given, 6 h | baseline: untreated cells | log2 fold change | -1.72 |
| CCn1cc(-c2cc(Cn3ccnc3)cc3c2CCN([C@H](c2cc(OC)ccn2)C2CC2)C3=O)c(C(F)(F)F)n1 | HCC95 | cell growth, inhibitor | 120 h |  | EC50 | > 30000 nM |
| CCc1cnc(N2CCC(c3nc(COc4ccc(-n5cnnn5)cc4)cs3)CC2)nc1 | HEK-293T | RNA-seq GSEA, item: HALLMARK_FATTY_ACID_METABOLISM | concentration not given | direction not given | normalized enrichment score | 1.29 |
| Cc1ccc(C(=O)Nc2ccc(S(=O)(=O)O)c3cc(S(=O)(=O)O)cc(S(=O)(=O)O)c23)cc1NC(=O)c1cccc(NC(=O)Nc2cccc(C(=O)Nc3cc(C(=O)Nc4ccc(S(=O)(=O)O)c5cc(S(=O)(=O)O)cc(S(=O)(=O)O)c45)ccc3C)c2)c1 | HBL-1 |  | 0.5 µM, 120 h |  | viability | 113% |
| CN1CCN(c2ccc(C(=O)Nc3n[nH]c4ccc(Cc5cc(F)cc(F)c5)cc34)c(NC3CCOCC3)c2)CC1 | BT-12 | cell viability, MTT | 10 µM, 72 h |  | inhibition | 93.7% |
| COc1cnc2cccc(N3CCc4c(cc(Cn5ccnc5C)cc4-c4cn(C)nc4C(F)(F)F)C3=O)c2c1 | EOL1 | cell growth, inhibitor | 120 h |  | EC50 | 1220 nM |
| Oc1ccc(Nc2nc(-c3ccc(Cl)cc3)cs2)cc1 | HeLa expressing Ub(G76V)-GFP | Ub(G76V)-GFP degradation, cycloheximide chase | 12 µM |  | inhibition | 25% |
| Cn1cc(Nc2nccc(-c3ccc4c(c3)CN(C3COC3)CC[C@H]4NC(=O)c3cn(C(C)(C)C)nn3)n2)cn1 | human B cells |  | 100 nM, 64 h, stimulation-upregulated genes, added: CD40L, anti-IgM, IL-21 |  | number of downregulated genes | 475 |
